# Measured values gathered from unrelated publications.
# Numbered parts are unrelated; each lists some results of a single study.

# Study 1 — technique: RNA Bind-n-Seq; molecule type: RNA; medium: in vitro; concentration: 20 nM; notes: 6-mer, flanks averaged, single round; together with: 150 mM LiCl; reference: input library; direction: higher = stronger binding
# Target: TAR DNA-binding protein 43, full length, His tag (TARDBP, Homo sapiens, UniProt Q13148, residues 1-414)
Strand,6-mer enrichment (R)
UACCGC,0.887
CCCACU,1.01
UCCGAC,0.809
GCCACC,1.02

# Study 2 — technique: protein-binding microarray; molecule type: double-stranded DNA, one strand shown; medium: in vitro; concentration: 2200 nM top; notes: 60-bp whole probe; together with: salmon DNA 0.4 mg/ml; reference: random background probes; direction: higher = stronger binding
# Target: Interferon regulatory factor 7, full length, phosphomimetic (IRF7, Homo sapiens, UniProt Q92985, residues 1-503, S471D/S472D/S475D/S476D/S477D/S483D/S484D/S487D)
# Sequence of UniProt Q92985 (whole entry, unmodified, looked up): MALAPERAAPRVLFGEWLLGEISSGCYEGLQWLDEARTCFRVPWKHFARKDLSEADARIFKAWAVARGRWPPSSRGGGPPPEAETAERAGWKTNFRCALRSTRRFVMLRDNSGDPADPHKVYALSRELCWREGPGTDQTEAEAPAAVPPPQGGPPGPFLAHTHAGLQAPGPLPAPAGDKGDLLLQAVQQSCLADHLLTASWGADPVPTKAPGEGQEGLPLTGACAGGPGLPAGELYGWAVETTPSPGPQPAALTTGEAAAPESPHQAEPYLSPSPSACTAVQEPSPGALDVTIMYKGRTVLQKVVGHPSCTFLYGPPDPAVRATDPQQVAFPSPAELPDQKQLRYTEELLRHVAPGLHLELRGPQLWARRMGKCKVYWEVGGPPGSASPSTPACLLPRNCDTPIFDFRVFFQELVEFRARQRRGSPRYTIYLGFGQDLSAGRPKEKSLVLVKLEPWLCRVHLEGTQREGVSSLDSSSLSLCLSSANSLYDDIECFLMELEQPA
Strand,fitted relative affinity
GCCTAGCACTCACCTTTCTCTCTGTGACTGTGCTAGGTCTTGATTCGCTTGACGCTGCTG,3.01 z-score
GCCTAGCACGACGGCTTCCTTTTCCTGACGTGCTAGGTCTTGATTCGCTTGACGCTGCTG,1.32 z-score
GCCTAGCACGCCGATATCAGTATCGAGACGTGCTAGGTCTTGATTCGCTTGACGCTGCTG,0.614 z-score
GCCTAGCACGACGGACTGGGCACTGGGGACGTGCTAGTCTTGATTCGCTTGACGCTGCTG,-1.21 z-score

# Study 3 — technique: universal PBM; molecule type: double-stranded DNA, one strand shown; medium: in vitro; concentration: not given; direction: higher = stronger binding
# Target: Sal-like protein 4, full length isoform B (SALL4, Homo sapiens, UniProt Q9UJQ4-2, residues 1-616)
# Notes: 8-mer, flanks averaged, mean of replicates
# Residues (chain): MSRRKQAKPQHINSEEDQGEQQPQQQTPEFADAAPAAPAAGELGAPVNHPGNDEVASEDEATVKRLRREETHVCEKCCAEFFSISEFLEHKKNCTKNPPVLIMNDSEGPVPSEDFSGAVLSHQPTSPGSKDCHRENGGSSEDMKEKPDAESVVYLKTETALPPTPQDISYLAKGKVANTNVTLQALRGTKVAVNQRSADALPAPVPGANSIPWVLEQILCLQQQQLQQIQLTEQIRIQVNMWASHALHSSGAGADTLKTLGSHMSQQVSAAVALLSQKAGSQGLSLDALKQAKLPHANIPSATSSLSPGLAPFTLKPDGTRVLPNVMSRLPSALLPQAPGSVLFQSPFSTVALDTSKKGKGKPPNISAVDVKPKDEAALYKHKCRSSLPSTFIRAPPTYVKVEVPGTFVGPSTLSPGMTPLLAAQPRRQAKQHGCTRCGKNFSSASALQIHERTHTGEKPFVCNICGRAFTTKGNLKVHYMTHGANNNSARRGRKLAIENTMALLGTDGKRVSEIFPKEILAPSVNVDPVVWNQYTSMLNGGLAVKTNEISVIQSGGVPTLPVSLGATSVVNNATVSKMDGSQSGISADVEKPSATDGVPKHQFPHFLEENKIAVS
Strand,E-score
CGCCCAGA,-0.266
AATTATAC,0.335
GAGTACGA,0.0269
ACCACCAA,-0.163
AAGGGTGT,0.00113

# Single results of other studies
Molecule,target,test,test system,conditions,scale,quantity,value
"PhoQ, residues 284 288 289 292 302 303 AGGCYF","PhoP, residues 12 14 15 18 19 AGCRL (Escherichia coli, UniProt P23836)","Sort-seq, measured: YFP reporter",E. coli,"PhoQ-PhoP variant library, together with: 10 µM Mg2+","reference: high Mg2+ state, higher = stronger signaling",fold induction,7.31

# Some of these lines once more (study 1):
Strand,6-mer enrichment (R)
UCCGAC,0.809
